Measured values collected from several papers.
Protocols differ between the studies behind these lines. Numbers after ± are the reported error.

Cc1ncsc1-c1ccc(C(C)NC(=O)C2CC(O)CN2C(=O)C(NC(=O)CCCCCCCCCCN2CCCC(Nc3ncc(Cl)c(Nc4ccccc4S(=O)(=O)C(C)C)n3)C2)C(C)(C)C)cc1 (stereo not shown)  log2 fold change (22Rv1; RNA-seq, refers to: MED9 mRNA; concentration not given; reference: DMSO): -1.09
Cc1ccc(C(C)C)c(OCc2ccc(C(=O)N/N=C/c3cccc(O)c3O)cc2)c1  EC50 (Mus musculus; gene silencing, high-content imaging; LDR reporter GFP cells; confirmation, mean of two runs): 3.98 µM
COC1CN([C@H]2CC[C@H]([C@@]3(C)Oc4c(Cl)cc(C(=O)NCc5c(SC)cc(C)[nH]c5=O)c(C)c4O3)CC2)C1  log2 fold change (RNA-seq, refers to: COL4A2; human, whole blood; dose not given, 24 h; reference: pretreatment baseline): 2.31
O=C(N/N=C/c1ccc2c(ccc[n+]2Cc2ccccc2)c1)c1cc(C(=O)N/N=C/c2ccc3c(ccc[n+]3Cc3ccccc3)c2)ncn1  ΔTm (MYC parallel G4 DNA; FRET melting; 1 µM, DNA 0.2 µM, with: duplex DNA competitor 10 µM): 5.5 ± 0.7 °C
CNS(=O)(=O)Nc1nccc(Cc2c(C)c3ccc(Oc4ncccc4F)cc3oc2=O)c1F  IC50 (JMSU-1; cell viability; 7 days): 51.7 nM
CCC(=O)N1CCN(c2ccc(NC(=O)c3ccc([N+](=O)[O-])o3)cc2Cl)CC1  Emax (Mus musculus; gene silencing, high-content imaging; LDR reporter GFP cells; 30 h, retest, mean of two runs): 39%
Nc1ncc(-c2cc(-c3cnn(CC(F)(F)F)c3)ncc2F)nc1C(=O)NC1CNCC(F)C1 (stereo not shown)  remaining binding (NLK; KINOMEscan; 1 µM; reference: DMSO control): 86%
C[n+]1cccc2cc(/C=N/NC(=O)c3cc(C(=O)N/N=C/c4ccc5c(ccc[n+]5C)c4)ncn3)ccc21  ΔTm (MYC parallel G4 DNA; FRET melting; 1 µM, DNA 0.2 µM): 2.2 ± 1.3 °C
COC1OC(C)C(OC2OC(C)C(O)C(OC3OC(C)C(OC4OC(C)C(O)C(OC5OC(C)C(O)C(OS(=O)(=O)O)C5OS(=O)(=O)O)C4OS(=O)(=O)O)C(OS(=O)(=O)O)C3OS(=O)(=O)O)C2OS(=O)(=O)O)C(OS(=O)(=O)O)C1OS(=O)(=O)O (stereo not shown)  prothrombin time prolongation (human plasma; 128 µg/mL; reference: control): 0.95 fold
C=CC(=O)N1[C@H](c2ccc3c(c2)OCO3)c2[nH]c3ccccc3c2C[C@@H]1C(=O)N1CCN(C)CC1  relative co-enrichment (human cyclin E1 N112C-3xFLAG:CDK2; co-IP with TMT proteomics, refers to: DDX17; concentration not given, Q92841; reference: wild type DMSO): 110%
C[n+]1ccc(/C=N/NC(=O)C(=O)N/N=C/c2cc[n+](C)c3ccccc23)c2ccccc21  ΔTm (hp2 hairpin duplex DNA; FRET melting; 1 µM, with: ds26 10 µM): 0.6 ± 0.3 °C
CC(C)(C)c1cc(-c2ccc3cccnc3n2)nc(-c2ccc3cccnc3n2)c1.COc1ccncc1.[Cl-].[Cl-].[Ru+2].c1ccc2cc3nc4c5cccnc5c5ncccc5c4nc3cc2c1  phototherapeutic index (A-375; visible light 100 J/cm2; reference: dark EC50 over light EC50): 75
O=C(N/N=C/c1cc[n+](CC2CC2)c2ccccc12)c1ccc2ccc3ccc(C(=O)N/N=C/c4cc[n+](CC5CC5)c5ccccc45)nc3c2n1  ΔTm (MYC parallel G4 DNA; FRET melting; 1 µM, DNA 0.2 µM, with: duplex DNA competitor 10 µM): 9.6 ± 0.3 °C
COCC/N=C(\S)N/N=C(\C)c1ccccc1O  EC50 (Mus musculus; gene silencing, high-content imaging; LDR reporter GFP cells; confirmation, mean of two runs): 7.08 µM
O=C(N/N=C/c1cc[n+](CC2CC2)c2ccccc12)c1ccc2ccc(C(=O)N/N=C/c3cc[n+](CC4CC4)c4ccccc34)nc2n1  ΔTm (MYC parallel G4 DNA; FRET melting; 1 µM, DNA 0.2 µM, with: duplex DNA competitor 10 µM): 14.8 ± 0.1 °C
C=CC(=O)Nc1cccc(Cn2ncc3cnc(Nc4cnn(CCOC)c4)nc32)c1  percent of control (NIM1 human; binding, KINOMEscan; 100 nM; lower = stronger binding): 98%

Repeated from above:
CNS(=O)(=O)Nc1nccc(Cc2c(C)c3ccc(Oc4ncccc4F)cc3oc2=O)c1F  IC50 (JMSU-1; cell viability; 7 days): 51.7 nM
CCC(=O)N1CCN(c2ccc(NC(=O)c3ccc([N+](=O)[O-])o3)cc2Cl)CC1  Emax (Mus musculus; gene silencing, high-content imaging; LDR reporter GFP cells; 30 h, retest, mean of two runs): 39%
Nc1ncc(-c2cc(-c3cnn(CC(F)(F)F)c3)ncc2F)nc1C(=O)NC1CNCC(F)C1 (stereo not shown)  remaining binding (NLK; KINOMEscan; 1 µM; reference: DMSO control): 86%
